Published values from different studies.
Parts stem from different laboratories: compare values within a part only.
UniProt Q9HBH9, sequence (whole entry, looked up): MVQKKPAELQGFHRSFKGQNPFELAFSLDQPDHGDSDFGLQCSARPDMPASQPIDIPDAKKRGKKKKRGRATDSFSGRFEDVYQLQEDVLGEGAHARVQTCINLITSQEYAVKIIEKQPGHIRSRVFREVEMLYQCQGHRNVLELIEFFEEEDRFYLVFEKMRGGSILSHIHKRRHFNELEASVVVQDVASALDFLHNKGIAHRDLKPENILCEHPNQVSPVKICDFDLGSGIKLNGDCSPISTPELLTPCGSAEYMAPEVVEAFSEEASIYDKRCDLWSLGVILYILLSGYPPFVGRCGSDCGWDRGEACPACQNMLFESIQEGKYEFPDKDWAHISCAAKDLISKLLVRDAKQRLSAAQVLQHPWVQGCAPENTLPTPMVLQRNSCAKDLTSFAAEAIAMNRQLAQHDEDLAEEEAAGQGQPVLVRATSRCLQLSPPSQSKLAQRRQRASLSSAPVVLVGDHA
UniProt Q32MK0, sequence (whole entry, looked up): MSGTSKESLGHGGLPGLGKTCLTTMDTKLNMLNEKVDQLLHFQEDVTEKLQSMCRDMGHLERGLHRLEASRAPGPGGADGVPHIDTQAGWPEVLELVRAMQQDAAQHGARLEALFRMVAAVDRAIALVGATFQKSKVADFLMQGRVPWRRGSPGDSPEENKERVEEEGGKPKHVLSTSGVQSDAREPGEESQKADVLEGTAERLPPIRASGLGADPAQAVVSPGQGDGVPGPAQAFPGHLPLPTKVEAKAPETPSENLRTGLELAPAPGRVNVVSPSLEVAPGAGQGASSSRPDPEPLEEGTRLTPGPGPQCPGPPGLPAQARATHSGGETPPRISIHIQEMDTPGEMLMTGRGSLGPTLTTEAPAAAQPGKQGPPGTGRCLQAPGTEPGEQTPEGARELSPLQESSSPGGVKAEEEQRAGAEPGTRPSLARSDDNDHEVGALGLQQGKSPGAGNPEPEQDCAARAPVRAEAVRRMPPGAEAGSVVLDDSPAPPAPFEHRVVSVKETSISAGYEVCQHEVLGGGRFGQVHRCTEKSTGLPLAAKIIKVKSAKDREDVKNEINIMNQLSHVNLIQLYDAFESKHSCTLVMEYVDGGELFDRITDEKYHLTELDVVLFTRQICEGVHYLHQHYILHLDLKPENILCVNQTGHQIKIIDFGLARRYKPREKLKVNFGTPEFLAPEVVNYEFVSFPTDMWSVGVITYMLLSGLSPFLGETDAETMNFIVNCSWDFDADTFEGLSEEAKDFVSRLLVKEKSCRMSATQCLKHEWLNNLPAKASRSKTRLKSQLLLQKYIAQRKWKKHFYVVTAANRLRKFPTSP
UniProt O94804, sequence (whole entry, looked up): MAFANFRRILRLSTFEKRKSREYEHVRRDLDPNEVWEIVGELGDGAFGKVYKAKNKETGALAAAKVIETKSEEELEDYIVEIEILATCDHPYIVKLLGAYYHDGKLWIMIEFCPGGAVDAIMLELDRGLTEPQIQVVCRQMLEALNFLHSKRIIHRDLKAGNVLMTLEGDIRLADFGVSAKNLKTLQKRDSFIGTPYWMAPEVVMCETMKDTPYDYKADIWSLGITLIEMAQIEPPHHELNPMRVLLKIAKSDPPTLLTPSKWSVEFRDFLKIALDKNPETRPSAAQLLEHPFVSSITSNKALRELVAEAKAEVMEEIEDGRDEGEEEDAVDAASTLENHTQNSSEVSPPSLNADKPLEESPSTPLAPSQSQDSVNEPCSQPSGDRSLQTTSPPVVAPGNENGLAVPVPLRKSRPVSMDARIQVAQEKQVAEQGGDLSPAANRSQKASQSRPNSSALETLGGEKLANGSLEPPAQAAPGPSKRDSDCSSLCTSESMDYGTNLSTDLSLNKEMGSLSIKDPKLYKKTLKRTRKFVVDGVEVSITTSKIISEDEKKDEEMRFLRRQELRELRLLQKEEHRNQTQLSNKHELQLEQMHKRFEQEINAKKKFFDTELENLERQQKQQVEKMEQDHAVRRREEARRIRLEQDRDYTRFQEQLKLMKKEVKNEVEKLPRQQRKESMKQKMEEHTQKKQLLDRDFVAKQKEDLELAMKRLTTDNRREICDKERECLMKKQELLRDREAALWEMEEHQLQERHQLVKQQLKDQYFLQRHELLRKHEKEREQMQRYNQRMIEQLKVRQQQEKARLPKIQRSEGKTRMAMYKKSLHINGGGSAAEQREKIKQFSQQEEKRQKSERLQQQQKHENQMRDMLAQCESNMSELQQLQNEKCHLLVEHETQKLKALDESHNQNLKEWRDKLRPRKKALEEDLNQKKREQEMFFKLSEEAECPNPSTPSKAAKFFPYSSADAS
UniProt Q9UPZ9, sequence (whole entry, looked up): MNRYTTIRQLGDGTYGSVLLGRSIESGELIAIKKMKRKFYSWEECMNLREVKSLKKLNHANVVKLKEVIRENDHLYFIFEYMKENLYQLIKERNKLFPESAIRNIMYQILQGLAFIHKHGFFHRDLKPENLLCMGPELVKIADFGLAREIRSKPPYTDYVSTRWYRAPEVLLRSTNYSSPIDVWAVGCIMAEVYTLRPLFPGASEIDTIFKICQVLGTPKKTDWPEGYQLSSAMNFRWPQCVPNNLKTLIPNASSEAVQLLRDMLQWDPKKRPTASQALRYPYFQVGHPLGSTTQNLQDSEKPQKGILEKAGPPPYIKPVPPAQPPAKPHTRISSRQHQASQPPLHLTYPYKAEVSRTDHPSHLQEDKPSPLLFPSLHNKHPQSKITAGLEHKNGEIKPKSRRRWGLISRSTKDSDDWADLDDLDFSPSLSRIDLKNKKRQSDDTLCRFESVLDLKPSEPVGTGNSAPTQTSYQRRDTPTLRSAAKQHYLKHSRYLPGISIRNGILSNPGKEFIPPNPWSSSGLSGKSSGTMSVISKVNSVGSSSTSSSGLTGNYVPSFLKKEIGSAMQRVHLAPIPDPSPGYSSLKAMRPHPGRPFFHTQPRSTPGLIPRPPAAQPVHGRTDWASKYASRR
UniProt Q92772, sequence (whole entry, looked up): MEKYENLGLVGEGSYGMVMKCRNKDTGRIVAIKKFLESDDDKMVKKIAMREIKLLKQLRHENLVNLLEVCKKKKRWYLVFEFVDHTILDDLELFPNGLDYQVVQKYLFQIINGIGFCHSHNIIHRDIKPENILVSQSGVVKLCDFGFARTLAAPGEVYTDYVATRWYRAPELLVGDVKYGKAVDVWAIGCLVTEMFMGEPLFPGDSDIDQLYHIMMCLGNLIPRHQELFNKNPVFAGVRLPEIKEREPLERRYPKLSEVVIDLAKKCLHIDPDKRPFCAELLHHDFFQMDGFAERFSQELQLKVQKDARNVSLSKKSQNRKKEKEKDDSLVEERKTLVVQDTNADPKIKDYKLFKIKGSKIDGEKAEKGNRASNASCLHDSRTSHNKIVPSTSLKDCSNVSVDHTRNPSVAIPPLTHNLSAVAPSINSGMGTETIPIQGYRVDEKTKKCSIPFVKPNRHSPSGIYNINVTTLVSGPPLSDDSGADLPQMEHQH

Series 1
Species: mouse
Medium: microsomes or S9
Tested at: 2 µM
Time: 0.5 h
Quantity: remaining compound
O=C(NCc1nc(-c2ccc[nH]c2=O)no1)c1ccc2[nH]c(=O)oc2c1: > 100%
Nc1ncnc2c1ncn2C[C@@H]1CC[C@H](c2nc(C3CCC3)no2)O1: > 100%
CC(C)c1c(Cl)nc(NCCO)nc1N1CCN(C(=O)CO)CC1: 95.9%
CC(c1ccc(F)cc1)N(C)C(=O)c1ccc(-c2ccncc2)[nH]c1=O (stereo not drawn): 30.6%
COCc1cccc(C(=O)OCC(=O)c2ccc(CCCNC(C)=O)cc2)c1: 1.11%
O=S(=O)(NCc1ccncc1O[C@H]1CCNC1)c1ccco1: 67.2%
Cc1noc(/C=C/c2ccccc2F)c1S(=O)(=O)N1CCC(C(=O)Nc2ccc(S(N)(=O)=O)cc2)CC1: 63.8%

Series 2
Target: Beta-1 adrenergic receptor (ADRB1, Homo sapiens, UniProt P08588)
UniProt P08588, sequence (whole entry, looked up): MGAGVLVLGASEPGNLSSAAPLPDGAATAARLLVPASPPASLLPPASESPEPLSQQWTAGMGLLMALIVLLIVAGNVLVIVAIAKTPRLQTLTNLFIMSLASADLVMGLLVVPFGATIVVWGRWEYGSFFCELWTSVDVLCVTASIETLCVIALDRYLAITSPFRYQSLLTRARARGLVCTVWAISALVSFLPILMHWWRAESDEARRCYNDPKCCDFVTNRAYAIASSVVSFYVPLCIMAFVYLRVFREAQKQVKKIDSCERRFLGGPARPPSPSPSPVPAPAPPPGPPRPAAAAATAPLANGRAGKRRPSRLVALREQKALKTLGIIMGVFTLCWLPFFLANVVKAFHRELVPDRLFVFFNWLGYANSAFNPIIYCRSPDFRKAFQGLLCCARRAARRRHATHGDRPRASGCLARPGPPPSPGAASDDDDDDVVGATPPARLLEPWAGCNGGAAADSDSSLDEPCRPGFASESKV
Action: agonist
Quantity: EC50
N#Cc1cc(NC(=O)Nc2nnc(-c3ccncc3)s2)ccc1-c1cn[nH]c1: 2.51 µM
CN(C)CCN(C)C(=O)c1ccc(NC(=O)Nc2ccc(-c3nc(N4CCOCC4)c4ccn(CC(F)(F)F)c4n3)cc2)cc1: ≥ 100 µM
CN(C)c1cccc(-c2ncc3c(n2)OCCN(Cc2ccccc2)C3=O)c1: ≥ 100 µM
COc1cc(CNCCc2ccccc2C)ccc1OCC(O)CN1CCOCC1 (stereo not drawn): 22.4 µM
COc1ccccc1-c1nccc2c(=O)cc(N(C)C)oc12: ≥ 100 µM
Clc1cccc(N2CCN(c3ncnc4ccsc34)CC2)c1: ≥ 100 µM
CN(C)c1ccc(CNC2(Cc3cc(-c4ccc(F)cc4)on3)COC2)cc1: ≥ 100 µM
Cc1nc(N)ncc1-c1nc(N2CCOCC2)c2sc(C(C)(C)O)cc2n1: ≥ 100 µM

Series 3
Target: Fibroblast growth factor receptor 3 (FGFR3, Homo sapiens, UniProt P22607)
UniProt P22607, sequence (whole entry, looked up): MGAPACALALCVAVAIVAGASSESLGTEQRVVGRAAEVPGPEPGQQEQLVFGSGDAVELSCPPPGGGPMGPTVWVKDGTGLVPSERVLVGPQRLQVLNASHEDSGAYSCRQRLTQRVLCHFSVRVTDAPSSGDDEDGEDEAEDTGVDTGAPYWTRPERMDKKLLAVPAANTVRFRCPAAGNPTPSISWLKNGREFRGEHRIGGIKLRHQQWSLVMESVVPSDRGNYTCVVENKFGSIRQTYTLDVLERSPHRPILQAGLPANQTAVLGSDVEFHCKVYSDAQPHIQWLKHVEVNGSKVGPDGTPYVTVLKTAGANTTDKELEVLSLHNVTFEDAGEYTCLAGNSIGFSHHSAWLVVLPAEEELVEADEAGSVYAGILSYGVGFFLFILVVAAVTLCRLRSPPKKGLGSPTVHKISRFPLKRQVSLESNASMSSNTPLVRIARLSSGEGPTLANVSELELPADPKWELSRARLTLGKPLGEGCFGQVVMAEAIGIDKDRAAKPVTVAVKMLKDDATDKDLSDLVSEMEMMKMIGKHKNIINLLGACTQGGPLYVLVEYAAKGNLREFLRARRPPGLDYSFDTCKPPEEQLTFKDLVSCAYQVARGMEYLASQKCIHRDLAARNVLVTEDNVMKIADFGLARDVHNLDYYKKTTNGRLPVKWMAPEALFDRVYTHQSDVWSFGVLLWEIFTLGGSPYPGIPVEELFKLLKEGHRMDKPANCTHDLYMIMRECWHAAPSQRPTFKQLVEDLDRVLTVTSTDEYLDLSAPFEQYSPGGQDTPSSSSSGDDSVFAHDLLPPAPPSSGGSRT
Observed: enzyme activity
Action: inhibitor
Tested at: 0.5 µM
Reference: control
Quantity: remaining activity
C#Cc1cccc(Nc2ncnc3cc(OCCOC)c(OCCOC)cc23)c1: 87.6%
NCCNc1ncc(C(N)=O)c(Nc2cccc(C(F)(F)F)c2)n1: 97.5%
CN(C)c1ccc(C=C2C(=O)Nc3ccccc32)cc1: 96.3%
Cc1cccc(-c2[nH]c(C(C)(C)C)nc2-c2ccc3c(c2)OCO3)n1: 96.6%
Nc1[nH]nc2nc3ccccc3nc12: 96.5%
Cc1nc(-c2ccccc2)c(-c2ccncc2)o1: 95.6%
CC(C)[C@H](CO)Nc1nc(Nc2cc(N)cc(Cl)c2)c2ncn(C(C)C)c2n1: 79.4%
O=C1NC(=O)C(c2cn(CCCO)c3ncccc23)=C1c1cnccn1: 78.7%
Nc1ncnc2n[nH]c(Nc3ccc(F)cc3)c12: 101%
COc1cc2nccc(Oc3ccc(NC(=S)NC(=O)c4ccccc4C)cc3)c2cc1OC: 88.8%
O=C(CCCc1ccc(-c2ccccc2F)cc1)Nc1ccc(O)cc1: 103%
Cn1sc(=O)n(Cc2ccccc2)c1=O: 100%
COc1ccc(OC)c2c(=S)c3ccccc3[nH]c12: 94.9%
Oc1ccc(-c2nc(-c3ccncc3)c(-c3ccc(F)cc3)[nH]2)cc1: 99.2%

Series 4
SMILES: O=C(N1CCS(=O)(=O)CC1)N1C[C@H](c2ccc(OC(F)(F)F)cc2)C[C@H](c2nc(C3CC3)no2)C1
Method: competition with immobilised ligand
Tested at: 1 µM
Quantity: remaining binding
Serine/threonine-protein kinase ICK (CILK1, Homo sapiens, UniProt Q9UPZ9); binding: 100%
Cyclin-dependent kinase-like 2 (CDKL2, Homo sapiens, UniProt Q92772); binding: 100%
Epidermal growth factor receptor (EGFR, Homo sapiens, UniProt P00533, del747-752/P753S); cell-free assay: 100%
Serine/threonine-protein kinase 10 (STK10, Homo sapiens, UniProt O94804); cell-free assay: 100%
MAP kinase-interacting serine/threonine-protein kinase 2 (MKNK2, Homo sapiens, UniProt Q9HBH9); cell-free assay: 94%
Myosin light chain kinase (MYLK3, Homo sapiens, UniProt Q32MK0); cell-free assay: 79%
Death-associated protein kinase 1 (DAPK1, Homo sapiens, UniProt P53355); cell-free assay: 92%

Excerpt of the above (series 3):
Cc1nc(-c2ccccc2)c(-c2ccncc2)o1: 95.6%
CC(C)[C@H](CO)Nc1nc(Nc2cc(N)cc(Cl)c2)c2ncn(C(C)C)c2n1: 79.4%
